Published values gathered from unrelated publications.
Protocols differ between the studies behind these lines. Values joined by “and” are separate records of one study, mostly repeats; a detail may differ. ± gives the spread as reported. ≈ marks a conversion by molar mass, not a printed value.

| SMILES | organism | test | system | setting | scale | quantity | value |
| --- | --- | --- | --- | --- | --- | --- | --- |
| N=C(N)c1ccc(OCc2cc(COc3ccc(C(=N)N)cc3)cc(-c3ccccc3)c2)cc1 | Escherichia coli | checkerboard | BW25113 | concentration not given, lowest-FICI combination, together with: rifampicin | – | MIC of compound in combination | 3.13 µg/mL |
| CCOc1ccc2cc(-c3nn(CC4CCN(C)CC4)c4ncnc(N)c34)ccc2c1 | Theileria equi | hydroethidine flow cytometry | USDA Florida | 6 µM, 72 h | – | % of maximum PPE | 36.5% |
| Nc1ccc(Br)cc1C(=O)NCCCCNc1ccnc2cc(Cl)ccc12 | Chromobacterium violaceum | violacein production | ATCC 31532 | 10 µM, 2% DMSO | – | inhibition | 45.2% |
| CCOC(=O)c1cc(-c2nc3ccccc3s2)c(=O)n(NS(=O)(=O)c2ccc(C)cc2)c1N | coxsackievirus B4 | viral replication, plaque | BGM | non-toxic dose, mean of three titres | – | plaque reduction | 20% |
| CCOC1=CC(c2ccc[nH]2)=N/C1=C\c1cc(Cc2ccc(Cl)cc2)c(C)[nH]1.Cl | Plasmodium yoelii | – | CF1 mouse | oral, 80 mg/kg single dose, day 5 | – | parasitaemia reduction | 100% |
| C[C@@H](O)[C@H]1C(=O)N2C(C(=O)O)=C(S[C@@H]3CN[C@H](C(=O)N(C)C)C3)[C@H](C)[C@H]12 | Salmonella enterica München | broth microdilution | clinical isolate RKI 419/14 | – | – | MIC | ≤ 0.5 µg/mL |
| Cc1[nH]c(C)c(-c2ccc(OCc3cc(C(F)(F)F)cc(C(F)(F)F)c3)nc2)c(=O)c1Cl | Plasmodium yoelii | – | 17XL | 384-well | – | IC50 | 168 ± 38 nM |
| COC(=O)Nc1nc2cc(C(=O)c3ccc(F)cc3)ccc2[nH]1 | Trichomonas gallinae | CCK-8 | trophozoites | 24 h | – | IC50 | 7180 nM |
| CC1(F)CN(C(=O)Cn2c(=O)c(C(=O)NCc3ccc(Cl)cc3)cc3nc(N4CCNC4=O)cnc32)C1 | herpes simplex virus 1 | viral cytopathic effect | Vero | 120 h | – | EC50 | 510 nM |
| CC(=O)Oc1ccccc1C(=O)Nc1ncc([N+](=O)[O-])s1 | Cryptosporidium parvum | – | HCT-8 | EC50, 24 h | relative to: DMSO control | parasite number | 75.9% and 105% and 96.2% and 111% |
| COC1=C(OC)/C(=C/c2[nH]c(Cc3ccc(OC(F)(F)F)cc3)cc2Cc2ccc(OC(F)(F)F)cc2)N=C1c1ccc[nH]1.Cl | Plasmodium yoelii | – | CF1 mice | oral, 10 mg/kg daily for 4 days, day 5 | relative to: vehicle | parasitaemia reduction | 98.5% |
| Cc1[nH]c(C)c(C(F)(F)F)c(=O)c1-c1ccc(Oc2ccc(OC(F)(F)F)cc2)cc1 | Plasmodium yoelii | – | 17XL | 384-well | – | IC50 | 358 ± 165 nM |
| Cc1nc(C)c(Cl)c(O)c1Cl | Trichomonas gallinae | CCK-8 | – | 20 µM, 24 h | – | inhibition | 50.2% |
| CC(C)c1cnn2c(NCc3ccccc3-n3cccn3)nc(OC3CCCNC3)nc12 (stereo not shown) | herpes simplex virus 1 | viral replication | K26, GFP-expressing, 3D bioprinted skin, submerged | – | – | IC50 | 670 nM |
| Nc1nc(-c2ccccc2)nc2[nH]nc(Nc3ccc(C(F)(F)F)cc3)c12 | coxsackievirus B3 | – | 31-1-93, NMRI mice, CVB3 chronic myocarditis | oral, 100 mg/kg twice daily, day 14, dosed days 3 to 10, score scale 0 to 7 | direction not given | clinical score | 0.8 |
| CC[C@H]1OC(=O)[C@H](C)[C@@H](O[C@H]2C[C@@](C)(OC)[C@@H](O)[C@H](C)O2)[C@H](C)[C@@H](O[C@@H]2O[C@H](C)C[C@H](N(C)C)[C@H]2O)[C@](C)(O)C[C@@H](C)CN(C)[C@H](C)[C@@H](O)[C@]1(C)O | Chromobacterium violaceum | bacterial viability, resazurin | ATCC 31532 | 400 µM | – | inhibition | 89.9% |
| COc1ccc(C2CC(=O)C3=C(C2)NC(C)=C(C(=O)OC(C)C)C3c2cccc(O)c2)cc1OC (stereo not shown) | Plasmodium yoelii | – | 17XL | 384-well | – | IC50 | > 20000 nM |
| COC1=CC(c2ccc[nH]2)=N/C1=C\c1[nH]c(Cc2ccc(OC(F)(F)F)cc2)cc1Cc1ccc(OC(F)(F)F)cc1 | Plasmodium yoelii | – | CF1 mice | oral, 10 mg/kg daily for 4 days, day 5 | relative to: vehicle | parasitaemia reduction | 100% |
| O=C(Nc1cccc(C2=NCCN2)c1)Nc1cccc(C2=NCCN2)c1 | Theileria equi | parasite growth, flow cytometry | horse erythrocytes, USDA Florida strain | 0.0215 µM, 72 h | – | inhibition | 16.9% |
| Oc1c(I)cc(I)c2cccnc12 | Trichomonas gallinae | CCK-8 | trophozoites | 24 h | – | IC50 | 8200 nM |
| COc1ccc(-c2nc(N3CCOCC3)c3sc(CN(C)c4ncc(C(=O)NO)cn4)cc3n2)cn1 | herpes simplex virus 1 | viral replication | K26, GFP-expressing, 3D bioprinted skin, submerged | – | – | IC50 | 1450 nM |
| Cc1nc2ccc(-c3ccc(OC(F)(F)F)cc3)cc2c(O)c1C#N | Plasmodium yoelii | – | 17XL | 384-well | – | IC50 | 274 ± 62 nM |
| c1ccc(OCCn2c(CNCC34CC5CC(CC(C5)C3)C4)nc3ccccc32)cc1 | Streptococcus pneumoniae | – | clinical isolates | – | – | MIC50 | ≤ 4 µg/mL |
| Nc1ccccc1C(=O)NCCCCNc1ccnc2ccccc12 | Chromobacterium violaceum | bacterial viability, resazurin | ATCC 31532 | 40 µM | – | inhibition | 0.8% |
| Cc1[nH]c(/C=C2\N=C(c3ccc[nH]3)C=C2OC(C)C)cc1Cc1ccc(Cl)cc1.Cl | Plasmodium yoelii | – | CF1 mice | oral, 10 mg/kg daily for 4 days, day 5 | relative to: vehicle | parasitaemia reduction | 100% |

| SMILES | organism | test | system | setting | scale | quantity | value |
| --- | --- | --- | --- | --- | --- | --- | --- |
| COC(=O)[C@H](Cc1ccc(O)cc1)NCc1cc2ccccc2nc1SC | Pseudomonas aeruginosa | – | – | 64 µg/mL, together with: pentamidine 100 µM | relative to: control | growth | 48.5% |
| Cc1cc(Nc2ccc(S(F)(F)(F)(F)F)cc2)n2nc(C(C)(F)F)nc2n1 | Plasmodium vivax | – | infected patients | dose not given | – | time to clear 99% of initial parasitaemia | ~4 days |
| Cc1[nH]c(C)c(-c2ccc(C#Cc3ccc(F)cc3F)cc2)c(=O)c1Br | Plasmodium yoelii | – | 17XL | 384-well | – | IC50 | 129 ± 35 nM |
| Cc1[nH]c(/C=C2\N=C(c3ccc[nH]3)C=C2OCc2ccccc2)cc1Cc1ccc(OC(F)(F)F)cc1 | Plasmodium yoelii | parasitaemia | mouse | 4-day treatment, parasitaemia day 5 | – | ED90 | 8.51 mg/kg/day |
| CC(C)C[C@@H]1NC(=O)[C@@H](Cc2ccccc2)NC(=O)[C@H](CCN)NC(=O)[C@@H](NC(=O)[C@H](CCN)NC(=O)[C@@H](N)[C@@H](C)O)CCNC(=O)[C@H]([C@@H](C)O)NC(=O)[C@H](CCN)NC(=O)[C@H](CCN)NC1=O | Escherichia coli | MIC of compound in combination, checkerboard | 552100 | concentration not given, together with: rifampicin | – | MIC | 12.5 µg/mL |
| Cc1[nH]c(C)c(-c2ccc(S(=O)(=O)c3ccc(Cl)cc3)cc2)c(=O)c1Cl | Plasmodium yoelii | – | 17XL | 384-well | – | IC50 | 375 ± 112 nM |
| C=CC[C@@H]1c2ccc(OC)c(OC)c2CN2CCc3cc4c(cc3[C@H]12)OCO4 | Staphylococcus aureus | – | P2rx7+/+ mice, skin wound infection | dose not given, day 6 | relative to: day 0 | relative wound size | 0.26 and 0.73 and 0.92 and 0.16 and 0.32 and 0.33 |
| Cc1cc(OC(C)C)ccc1C(=O)C(C)(C)NC(=O)c1sccc1C | Trichoderma sp. | mycelial growth | PSA medium | 20 °C, suspension concentrate 400 g/L | – | EC50 | 0.41 µg/mL |
| C=Cc1cc(NC(=O)N2CCc3cc(OC)c(C(F)(F)F)cc32)cc(-c2cccnc2)c1 | Plasmodium yoelii | – | 17XL | 384-well | – | IC50 | > 20000 nM |
| CCCCCCCCCC(=O)N[C@@H](Cc1c[nH]c2ccccc12)C(=O)N[C@H](CC(N)=O)C(=O)N[C@@H](CC(=O)O)C(=O)N[C@@H]1C(=O)NCC(=O)N[C@@H](CCCN)C(=O)N[C@@H](CC(=O)O)C(=O)N[C@H](C)C(=O)N[C@@H](CC(=O)O)C(=O)NCC(=O)N[C@H](CO)C(=O)N[C@@H]([C@H](C)CC(=O)O)C(=O)N[C@@H](CC(=O)c2ccccc2N)C(=O)O[C@@H]1C | Staphylococcus simulans | broth microdilution | 22, Mueller-Hinton broth, Mg2+ 10 mg/L | 16 h, 30 °C, together with: Ca2+ 5 mM | – | MIC | 0.031 µg/mL (≈ 0.0191 µM) |
| Cc1ccc(NC(=O)N2Cc3[nH]cnc3C[C@H]2c2nc(-c3ccc4c(c3)OCO4)no2)cc1 | Caenorhabditis elegans | – | N2 | 25 µM | – | mean lifespan | 22.3 days |
| COc1c(N2C[C@@H]3CCCN[C@@H]3C2)c(F)cc2c(=O)c(C(=O)O)cn(C3CC3)c12 | Streptococcus pneumoniae | broth microdilution | penicillin-resistant isolates | – | – | MIC90 | 1 µg/mL (≈ 2.49 µM) |
| COCC(=O)N1CCCC(C(=O)NCc2nc(-c3ccccc3)cs2)C1 (racemic) | Plasmodium falciparum | – | 3D7 | 72 h | – | EC50 | 140 to 190 nM |
| C=C(NC(=O)c1nccc(OC)c1O)C(=O)O[C@@H](C)[C@H](OC(=O)C(C)C)[C@@H](Cc1ccccc1)C(=O)O | Pseudokirchneriella subcapitata | growth rate | – | 72 h, static test | – | EC50 | > 10 µg/mL |
| CN[C@H](CC(C)C)C(=O)N[C@H]1C(=O)N[C@@H](CC(N)=O)C(=O)N[C@H]2C(=O)N[C@H]3C(=O)N[C@H](C(=O)N[C@H](C(=O)O)c4cc(O)cc(O)c4-c4cc3ccc4O)[C@H](O)c3ccc(c(Cl)c3)Oc3cc2cc(c3O[C@@H]2O[C@H](CO)[C@@H](O)[C@H](O)[C@H]2O[C@H]2C[C@](C)(N)[C@H](O)[C@H](C)O2)Oc2ccc(cc2Cl)[C@H]1O | Streptococcus pneumoniae | – | penicillin-resistant, 10 isolates | pH 7.0 | – | MIC50 | 0.5 µg/mL (≈ 0.345 µM) |
| CN[C@H](CC(C)C)C(=O)N[C@H]1C(=O)N[C@@H](CC(N)=O)C(=O)N[C@H]2C(=O)N[C@H]3C(=O)N[C@H](C(=O)N[C@H](C(=O)O)c4cc(O)cc(O)c4-c4cc3ccc4O)[C@H](O)c3ccc(c(Cl)c3)Oc3cc2cc(c3O[C@@H]2O[C@H](CO)[C@@H](O)[C@H](O)[C@H]2O[C@H]2C[C@](C)(N)[C@H](O)[C@H](C)O2)Oc2ccc(cc2Cl)[C@H]1O | Streptococcus pyogenes | – | ATCC 19615 | 1 strain | – | MIC50 | 0.25 µg/mL (≈ 0.173 µM) |
| CCOc1ccc2cc(-c3nn(CC4CCN(C)CC4)c4ncnc(N)c34)ccc2n1 | Theileria equi | hydroethidine flow cytometry | USDA Florida | 12 µM, 72 h | – | % of maximum PPE | 16.6% |
| CNC(C)C1CCC(N)C(OC2C(N)CC(N)C(OC3OCC(C)(O)C(NC)C3O)C2O)O1 (stereo not shown) | Pseudomonas aeruginosa | – | clinical isolate RKI-No_597/16 | – | – | MIC | 4 µg/mL (≈ 8.38 µM) |
| CC(C)n1ncc2c(C(=O)NCC3(C)CNC3)cc(C3CC3)nc21 | Enterovirus D68 | viral replication | RD, recombinant wild-type US/MO/14-18947 | 0.01 µM | relative to: untreated | plaque area | 114% and 102% |
| Cc1[nH]c(C)c(-c2ccc(Nc3ccc(C(F)(F)F)cn3)cc2)c(=O)c1Br | Plasmodium yoelii | – | 17XL | 384-well | – | IC50 | 48 ± 8 nM |
| COC1=CC(c2ccc[nH]2)=N/C1=C\c1cc(Cc2ccc(OC(F)(F)F)cc2)c(C)[nH]1.Cl | Plasmodium yoelii | – | CF1 mice | oral, 10 mg/kg daily for 4 days, day 5 | relative to: vehicle | parasitaemia reduction | 100% |
| CCOc1ccc2cc(-c3nn(CC4CCNCC4)c4ncnc(N)c34)ccc2c1 | Theileria equi | parasite growth, hydroethidine flow cytometry | USDA Florida | 72 h | – | EC50 | 4110 nM |
| O=c1c(-c2nc3ccccc3s2)cc2c(n1NS(=O)(=O)c1ccc(Cl)cc1)CCCC2 | Hepatitis C virus | viral replication, qRT-PCR | Huh7.5 cells, genotype 4 ED-43/SG-Feo | non-toxic concentration | – | reduction | 0% |
| CCC1=C(CC)/C(=C/c2[nH]c(Cc3ccc(Cl)cc3)cc2Cc2ccc(Cl)cc2)N=C1c1ccc[nH]1 | Plasmodium yoelii | parasitaemia | mouse | 4-day treatment, parasitaemia day 5 | – | ED50 | 3.29 mg/kg/day |

For quick reference, copied from above:
| SMILES | organism | test | system | setting | scale | quantity | value |
| --- | --- | --- | --- | --- | --- | --- | --- |
| CCC1=C(CC)/C(=C/c2[nH]c(Cc3ccc(Cl)cc3)cc2Cc2ccc(Cl)cc2)N=C1c1ccc[nH]1 | Plasmodium yoelii | parasitaemia | mouse | 4-day treatment, parasitaemia day 5 | – | ED50 | 3.29 mg/kg/day |
| Cc1[nH]c(C)c(-c2ccc(C#Cc3ccc(F)cc3F)cc2)c(=O)c1Br | Plasmodium yoelii | – | 17XL | 384-well | – | IC50 | 129 ± 35 nM |
| COc1ccc(C2CC(=O)C3=C(C2)NC(C)=C(C(=O)OC(C)C)C3c2cccc(O)c2)cc1OC (stereo not shown) | Plasmodium yoelii | – | 17XL | 384-well | – | IC50 | > 20000 nM |
| CCOc1ccc2cc(-c3nn(CC4CCN(C)CC4)c4ncnc(N)c34)ccc2c1 | Theileria equi | hydroethidine flow cytometry | USDA Florida | 6 µM, 72 h | – | % of maximum PPE | 36.5% |
| Cc1[nH]c(/C=C2\N=C(c3ccc[nH]3)C=C2OC(C)C)cc1Cc1ccc(Cl)cc1.Cl | Plasmodium yoelii | – | CF1 mice | oral, 10 mg/kg daily for 4 days, day 5 | relative to: vehicle | parasitaemia reduction | 100% |
